Measured values gathered from unrelated publications.
Parts stem from different laboratories: compare values within a part only. Changes are numbered by the printed parent chain.

Block 1 — target: CCNA1, cyclin fold, Cln2 fusion (human); method: yeast growth competition, sequencing; matrix: yeast; notes: weak parent motif; baseline: not given; direction: higher = stronger binding
Parent: PKMYT1 docking peptide (human); SFEPRNLLSLFED; partner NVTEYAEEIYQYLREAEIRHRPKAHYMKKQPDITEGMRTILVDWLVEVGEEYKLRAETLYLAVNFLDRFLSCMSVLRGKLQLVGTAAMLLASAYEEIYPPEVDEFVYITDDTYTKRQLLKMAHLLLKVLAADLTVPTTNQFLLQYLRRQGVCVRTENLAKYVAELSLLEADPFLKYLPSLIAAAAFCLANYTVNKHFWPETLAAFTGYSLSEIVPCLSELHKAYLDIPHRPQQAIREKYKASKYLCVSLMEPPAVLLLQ
| Change | normalised enrichment score |
| --- | --- |
| F11W | 0.5 |
| F11V | 0.141 |
| S1C | 0.239 |
| F11R | 0.201 |
| S9N | -0.175 |
| L10A | 0.358 |
| E12A | -0.02 |
| F2C | 0.0405 |
| F2H | -0.0721 |
| F2D | 0.438 |
| L8M | 0.369 |

Block 2 — method: competition protein-binding microarray; form: double-stranded DNA, one strand shown; matrix: in vitro; tested at: 2 µM; added: Cbf1 competitor, 0.05 µM; direction: higher = stronger binding
Target: Phosphate system positive regulatory protein PHO4, full length, GST-tagged (PHO4, Saccharomyces cerevisiae, UniProt P07270, residues 1-312)
Notes: whole 60-bp probe, lowest competitor level
Target sequence (chain): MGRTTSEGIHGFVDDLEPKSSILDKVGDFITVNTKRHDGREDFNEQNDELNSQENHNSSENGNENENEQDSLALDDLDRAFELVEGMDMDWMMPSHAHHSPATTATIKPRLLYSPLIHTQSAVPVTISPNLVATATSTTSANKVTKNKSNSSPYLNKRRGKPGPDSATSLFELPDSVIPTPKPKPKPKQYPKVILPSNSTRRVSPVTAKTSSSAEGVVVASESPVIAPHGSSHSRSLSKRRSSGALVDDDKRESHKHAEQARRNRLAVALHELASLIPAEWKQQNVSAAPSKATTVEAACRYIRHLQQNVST
| Oligonucleotide | fluorescence intensity |
| --- | --- |
| GGGCTTACTTTATCGCACGTGATGGTTCCCACAGTAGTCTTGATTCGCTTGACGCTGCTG | 15900 a.u. |
| AAATTACTAAGTTGCGTGGTGGGTGACGCCGTATGAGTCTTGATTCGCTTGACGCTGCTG | 6990 a.u. |
| GGCATTATCCTTCCGCACGTTTCTTGGATAATTCATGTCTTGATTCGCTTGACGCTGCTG | 13200 a.u. |
| TGGCGGTTAGTCCTCTGCGTGATGGATCGTTGTAATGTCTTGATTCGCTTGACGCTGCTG | 5700 a.u. |
| TGCGCAACAACTTGAGTAGTGGGTGTATGTCTAGAAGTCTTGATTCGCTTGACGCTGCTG | 4820 a.u. |
| AGCACCCAATTGGGCCATGTGTGTTTAACGCCGGGCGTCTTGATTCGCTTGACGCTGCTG | 8010 a.u. |
| AAATTACTAAGTTGCGCAGTGGGTGACGCCGTATGAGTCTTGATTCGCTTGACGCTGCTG | 4110 a.u. |

Block 3 — method: protein binding microarray; form: double-stranded DNA, one strand shown; matrix: in vitro; tested at: not given; baseline: not given; direction: higher = stronger binding
Target: Histone acetyltransferase KAT6A, both winged helices, GST fusion (KAT6A, Homo sapiens, UniProt Q92794, residues 1-181)
Notes: 8-mer, flanks averaged, mean of 2 arrays, mostly near background
Residues (chain): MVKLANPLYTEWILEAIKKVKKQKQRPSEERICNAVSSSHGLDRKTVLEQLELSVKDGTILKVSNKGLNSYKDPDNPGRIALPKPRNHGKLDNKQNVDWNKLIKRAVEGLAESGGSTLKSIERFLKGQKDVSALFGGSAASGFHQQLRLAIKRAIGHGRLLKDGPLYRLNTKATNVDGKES
| Oligonucleotide | E-score |
| --- | --- |
| ACCCCCAC | -0.122 |
| ATCGTCTC | 0.0209 |
| GTCTTGCA | 0.00582 |
| ATGAACCA | -0.00609 |
| AAATACCT | -0.0939 |
| GCTGTGGA | -0.0391 |
| GCGTCCAA | 0.0517 |

Mixed results
| Substance | target | test | test system | setting | scale | measurement | result |
| --- | --- | --- | --- | --- | --- | --- | --- |
| PhoQ, residues 284 288 289 292 302 303 SMMNNA | PhoP, residues 12 14 15 18 19 SQCLL (Escherichia coli, UniProt P23836) | Sort-seq, refers to: YFP reporter | E. coli | PhoQ-PhoP variant library, added: 10 µM Mg2+ | baseline: high Mg2+ state, higher = stronger signaling | fold induction | 16 |

A few entries again (block 2):
| Oligonucleotide | fluorescence intensity |
| --- | --- |
| GGGCTTACTTTATCGCACGTGATGGTTCCCACAGTAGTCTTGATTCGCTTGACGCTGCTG | 15900 a.u. |
| AAATTACTAAGTTGCGTGGTGGGTGACGCCGTATGAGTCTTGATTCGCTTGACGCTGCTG | 6990 a.u. |
